{"data": "Experimental data collected from several papers", "note": "A part holds a random share of what one study measured."}
{"data": "Sample 1", "target": "Replicase polyprotein 1ab, nsp13 helicase (rep, Severe acute respiratory syndrome coronavirus 2, UniProt P0DTD1)", "mode": "inhibitor", "tested at": "20 µM"}
{"SMILES": "CO[C@H]1/C=C\\C=C(/C)C(=O)NC2=CC(=O)C(NCCN(C)C)=C(C[C@@H](C)C[C@H](OC)[C@H](O)[C@@H](C)/C=C(\\C)[C@@H]1OC(N)=O)C2=O", "inhibition [%]": 15.6}
{"SMILES": "CN1C(=O)C(Cc2c[nH]c3ccccc23)NC1=S (centres unmarked)", "inhibition [%]": 2.16}
{"SMILES": "Nc1nc(NCCc2ccc(O)cc2)nc2nc(-c3ccco3)nn12", "inhibition [%]": 4.94}
{"SMILES": "COc1ccc(OC)c(C(O)CNC(=O)CN)c1 (centres unmarked)", "inhibition [%]": 12.1}
{"SMILES": "CC(C)(CCCCCC(O)CCCCCC(C)(C)C(=O)O)C(=O)O", "inhibition [%]": 12.4}
{"SMILES": "O=S(=O)(O)c1ccc(-c2c3nc(c(-c4ccc(S(=O)(=O)O)cc4)c4ccc([nH]4)c(-c4ccc(S(=O)(=O)O)cc4)c4nc(c(-c5ccc(S(=O)(=O)O)cc5)c5ccc2[nH]5)C=C4)C=C3)cc1", "inhibition [%]": 82.3}
{"SMILES": "CCCn1c(=O)[nH]c2nc(-c3ccc(S(=O)(=O)O)cc3)[nH]c2c1=O", "inhibition [%]": 4.27}
{"SMILES": "O=C1C[C@@H](c2ccccc2)Oc2cc(O)cc(O)c21", "inhibition [%]": 1.15}
{"SMILES": "CCN(Cc1ccc(Cl)nc1)/C(=C/[N+](=O)[O-])NC", "inhibition [%]": 1.2}
{"SMILES": "O=C(O)c1cnn(-c2nc3cc(OC(F)(F)F)c(Cl)cc3[nH]2)c1", "inhibition [%]": 2.77}
{"SMILES": "COC(=O)c1c(C)[nH]c(C)c1C(=O)c1ccccc1Cc1ccccc1", "inhibition [%]": 9.37}
{"SMILES": "Cn1cc(-c2ccc3c(c2)CCN3C(=O)Cc2cccc(C(F)(F)F)c2)c2c(N)ncnc21", "inhibition [%]": 4.54}
{"SMILES": "CCCCC[C@H](O)/C=C/[C@H]1[C@H](O)CC(=O)[C@@H]1CCCCCCC(=O)O", "inhibition [%]": -4.31}
{"SMILES": "CN1C(=O)CN=C(c2ccccc2)c2cc(Cl)ccc21", "inhibition [%]": -14.1}
{"SMILES": "Cc1cnc(-c2cc(N3CCN(C(=O)CCS(C)(=O)=O)CC3)ncc2Cl)c(C)c1", "inhibition [%]": 3.84}
{"SMILES": "COc1cc(COc2cc(N)c(Cl)cc2C(=O)CCC2CCN(CCNS(C)(=O)=O)CC2)cc(OC)c1", "inhibition [%]": 10.6}
{"SMILES": "CCn1cnc2c(Nc3cccc(Cl)c3)nc(N[C@@H]3CCCC[C@@H]3N)nc21", "inhibition [%]": 4.51}
{"SMILES": "CC(C)(C)NCC(O)c1cc(Cl)c(N)c(Cl)c1 (centres unmarked)", "inhibition [%]": -0.27}
{"SMILES": "C=CCN1C[C@H](C(=O)N(CCCN(C)C)C(=O)NCC)C[C@@H]2c3cccc4[nH]cc(c34)C[C@H]21", "inhibition [%]": 1.34}
{"SMILES": "C=CCNC1=C2C[C@@H](C)C[C@H](OC)[C@H](O)[C@@H](C)/C=C(\\C)[C@H](OC(N)=O)[C@@H](OC)/C=C\\C=C(/C)C(=O)NC(=CC1=O)C2=O", "inhibition [%]": 7.99}
{"SMILES": "N=C(N)N/N=C/c1c(Cl)cccc1Cl", "inhibition [%]": 0.7}
{"SMILES": "COc1ccc(N(C)c2nc(C)nc3ccccc23)cc1", "inhibition [%]": 0.17}
{"SMILES": "C=C1CC[C@H](O)C/C1=C/C=C1\\CCC[C@]2(C)[C@@H]([C@H](C)CCCC(C)(C)O)CC[C@@H]12", "inhibition [%]": 13.1}
{"SMILES": "NCCS(=O)(=O)O", "inhibition [%]": -8.29}
{"SMILES": "O=C/C=C/c1ccccc1", "inhibition [%]": -1.41}
{"data": "Sample 2", "target": "Sal-like protein 4, full length isoform A (SALL4, Homo sapiens, UniProt Q9UJQ4, residues 1-1053)", "technique": "universal PBM", "form": "double-stranded DNA, one strand shown", "sample": "in vitro", "tested at": "600 nM", "notes": "8-mer, flanks averaged, mean of replicates", "direction": "higher = stronger binding", "chain of UniProt Q9UJQ4 (whole entry, looked up)": "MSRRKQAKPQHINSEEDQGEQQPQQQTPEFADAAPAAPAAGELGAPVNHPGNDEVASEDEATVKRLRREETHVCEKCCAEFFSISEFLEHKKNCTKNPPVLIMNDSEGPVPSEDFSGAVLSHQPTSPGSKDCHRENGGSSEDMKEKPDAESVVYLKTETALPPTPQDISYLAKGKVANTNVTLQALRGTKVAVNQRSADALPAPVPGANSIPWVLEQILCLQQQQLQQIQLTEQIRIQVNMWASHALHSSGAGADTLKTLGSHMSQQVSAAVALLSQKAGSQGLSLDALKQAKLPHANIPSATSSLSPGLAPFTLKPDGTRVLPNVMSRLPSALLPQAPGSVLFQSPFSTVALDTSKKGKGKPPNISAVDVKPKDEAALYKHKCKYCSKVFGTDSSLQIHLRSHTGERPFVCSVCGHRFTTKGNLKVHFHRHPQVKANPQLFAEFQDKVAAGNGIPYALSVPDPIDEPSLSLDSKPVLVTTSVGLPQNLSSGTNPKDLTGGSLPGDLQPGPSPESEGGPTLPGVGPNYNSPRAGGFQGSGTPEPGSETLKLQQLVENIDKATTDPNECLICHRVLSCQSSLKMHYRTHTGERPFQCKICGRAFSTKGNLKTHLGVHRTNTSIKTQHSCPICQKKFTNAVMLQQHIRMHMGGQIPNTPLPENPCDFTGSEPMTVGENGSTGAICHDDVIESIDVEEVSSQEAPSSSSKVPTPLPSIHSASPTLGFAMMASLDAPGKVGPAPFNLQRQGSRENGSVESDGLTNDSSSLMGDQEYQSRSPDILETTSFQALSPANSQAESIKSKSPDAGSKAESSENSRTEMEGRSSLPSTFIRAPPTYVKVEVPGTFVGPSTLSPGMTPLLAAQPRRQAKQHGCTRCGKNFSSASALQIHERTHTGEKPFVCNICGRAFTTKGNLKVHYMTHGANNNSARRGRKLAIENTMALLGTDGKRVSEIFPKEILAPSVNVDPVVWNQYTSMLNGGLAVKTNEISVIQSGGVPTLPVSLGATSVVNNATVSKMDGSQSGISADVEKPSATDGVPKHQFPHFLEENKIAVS"}
{"Oligonucleotide": "CATTAGCA", "E-score": 0.118}
{"Oligonucleotide": "CCCGTAAA", "E-score": 0.0787}
{"Oligonucleotide": "GAGGATTA", "E-score": 0.0926}
{"Oligonucleotide": "TAAAAAAA", "E-score": 0.354}
{"Oligonucleotide": "ACGTCCGA", "E-score": -0.262}
{"Oligonucleotide": "GTAGATCA", "E-score": 0.0412}
{"Oligonucleotide": "AGCCTAAA", "E-score": -0.00728}
{"Oligonucleotide": "ATCGAGTG", "E-score": -0.0187}
{"data": "Sample 3", "target": "RNA binding protein fox-1 homolog 2, RRM domain, GST-SBP tag (RBFOX2, Homo sapiens, UniProt O43251-10, residues 100-194)", "technique": "RNA Bind-n-Seq", "form": "RNA", "sample": "in vitro", "tested at": "365 nM", "notes": "natural RNA segment, single round, ends assumed", "reference": "no-protein control", "direction": "higher = stronger binding", "Target sequence (chain)": "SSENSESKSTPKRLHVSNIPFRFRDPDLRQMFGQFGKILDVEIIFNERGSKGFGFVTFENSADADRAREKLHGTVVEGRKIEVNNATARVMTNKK"}
{"Oligonucleotide": "GGGAGUUCUACAGUCCGACGAUCACAGCGUGCUGUUCCGCAAGCAGCCGUUCCUGUGGCGCGCUGCACUGCUCUACUACACCAUCCACCGCGCCGCGCGCAUGUCCUUCCGUCAGCUCUUCCAGGACCUGGAGUGGAAUUCUCGGGUGCCAA", "RBNS enrichment (R)": 0.668}
{"Oligonucleotide": "GGGAGUUCUACAGUCCGACGAUCCUCUAGCAGCUUCCACAGACUUGGCUCGUGGCCUUCCUUAUAUCCACUGGGAACAAACAGCCUCGCGCUCUAUACCAAACAGCCUCGCGCUCUAUCCCAGUCGCCCAUUAUGGAAUUCUCGGGUGCCAA", "RBNS enrichment (R)": 0.252}
{"Oligonucleotide": "GGGAGUUCUACAGUCCGACGAUCAAGAAAUGGAGCCAAAUCUGCUCUAAGGUGAAUAGAGACUUAUUUUUCUUUAUUAAAGUAUUCUUGUAAGACAGUUUUCUGUGUCAAGUAUUUGUGAAAUCAGAGCUGACUGGAAUUCUCGGGUGCCAA", "RBNS enrichment (R)": 0.403}
{"Oligonucleotide": "GGGAGUUCUACAGUCCGACGAUCACAGCUGAGGGGUAGAAGUGGGACUCCUUUCCCGAGCCCCAGCAUGAGGCUGUGGUGUCAGGUUUAGGCCUCUCUCAAGUCAGAAAACCCCGGGCUGAGACCUCCACAGAUGGAAUUCUCGGGUGCCAA", "RBNS enrichment (R)": 15.6}
{"data": "Sample 4", "target": "Replicase polyprotein 1ab, main protease (rep, Severe acute respiratory syndrome coronavirus 2, UniProt P0DTD1)", "effect on": "enzyme activity", "mode": "inhibitor", "tested at": "20 µM", "notes": "primary screen"}
{"SMILES": "CCN1CCN(C(c2ccc(C(F)(F)F)cc2)c2ccc3cccnc3c2O)CC1 (centres unmarked)", "inhibition": "100%"}
{"SMILES": "COc1cc(C[C@@H]2NCCc3cc(O)c(O)cc32)cc(OC)c1OC", "inhibition": "73.9%"}
{"SMILES": "CC(=O)[O][Pt]([NH2])([Cl])([Cl])([NH]C1CCCCC1)[O]C(C)=O", "inhibition": "95.9%"}
{"data": "Sample 5", "target": "Interferon regulatory factor 7, full length, phosphomimetic (IRF7, Homo sapiens, UniProt Q92985, residues 1-503, S471D/S472D/S475D/S476D/S477D/S483D/S484D/S487D)", "technique": "protein-binding microarray", "form": "double-stranded DNA, one strand shown", "sample": "in vitro", "tested at": "2200 nM top", "notes": "60-bp whole probe", "together with": "salmon DNA 0.4 mg/ml", "reference": "random background probes", "direction": "higher = stronger binding", "constant ends, left off below": "GCCTAGCAC … GTCTTGATTCGCTTGACGCTGCTG", "Residues (chain)": "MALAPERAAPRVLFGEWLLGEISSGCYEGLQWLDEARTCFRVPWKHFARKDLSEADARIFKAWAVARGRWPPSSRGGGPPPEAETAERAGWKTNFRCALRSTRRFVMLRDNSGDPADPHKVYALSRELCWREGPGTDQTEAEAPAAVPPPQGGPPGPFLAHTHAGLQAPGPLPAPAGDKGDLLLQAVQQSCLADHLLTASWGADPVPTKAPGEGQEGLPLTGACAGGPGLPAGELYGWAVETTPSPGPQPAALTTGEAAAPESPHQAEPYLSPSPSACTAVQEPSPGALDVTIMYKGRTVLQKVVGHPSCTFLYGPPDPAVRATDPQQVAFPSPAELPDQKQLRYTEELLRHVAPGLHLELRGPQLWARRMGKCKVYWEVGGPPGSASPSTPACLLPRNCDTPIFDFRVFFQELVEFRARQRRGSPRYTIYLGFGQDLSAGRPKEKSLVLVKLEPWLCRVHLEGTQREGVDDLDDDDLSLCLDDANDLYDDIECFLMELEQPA"}
{"Oligonucleotide": "GACGGTTTCCTTATCCTAACGTGCTAG", "fitted relative affinity [z-score]": 3.07}
{"Oligonucleotide": "GACGATATCGGGCTTCGAGACGTGCTA", "fitted relative affinity [z-score]": -0.301}
{"Oligonucleotide": "GTCGGTTTCGGTATCGGGACGTGCTAG", "fitted relative affinity [z-score]": 9.18}
{"Oligonucleotide": "TTAGATATCGGGTATCGACTAGTGCTA", "fitted relative affinity [z-score]": 0.129}
{"Oligonucleotide": "TTAGAACTGAGTTGCGATTAGTGCTAG", "fitted relative affinity [z-score]": -0.21}
{"Oligonucleotide": "TTAGGTTTCGGACTAGGTTAGTGCTAG", "fitted relative affinity [z-score]": 2.62}
{"Oligonucleotide": "GACGGTAGCCTTCTCCTGACGTGCTAG", "fitted relative affinity [z-score]": 0.134}
{"Oligonucleotide": "TTACGTTTCGGGTATCGGTTAGTGCTA", "fitted relative affinity [z-score]": 6.72}
{"data": "Sample 6", "target": "Histone acetyltransferase KAT6A, winged helix 2, GST fusion (KAT6A, Homo sapiens, UniProt Q92794, residues 85-181)", "technique": "protein binding microarray", "form": "double-stranded DNA, one strand shown", "sample": "in vitro", "tested at": "not given", "notes": "8-mer, flanks averaged, mean of 2 arrays, mostly near background", "reference": "not given", "direction": "higher = stronger binding", "Residues (chain)": "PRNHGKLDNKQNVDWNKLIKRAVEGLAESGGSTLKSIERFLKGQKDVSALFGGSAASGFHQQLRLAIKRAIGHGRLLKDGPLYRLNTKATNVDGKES"}
{"Oligonucleotide": "ATCGCCCC", "E-score": -0.0622}
{"Oligonucleotide": "CAAAGGCC", "E-score": -0.022}
{"Oligonucleotide": "AGGGGCAT", "E-score": -0.133}
{"Oligonucleotide": "CGAGATGC", "E-score": 0.0786}
{"Oligonucleotide": "CATGCACC", "E-score": -0.121}
{"Oligonucleotide": "ACTACGAA", "E-score": -0.0178}
{"Oligonucleotide": "GATGATCA", "E-score": -0.0833}
{"Oligonucleotide": "ACAAGATC", "E-score": -0.0475}
